Assay results pooled from the literature.
Every numbered part comes from another study and shows a few of its results, in no order.

Set 1 — technique: RNA Bind-n-Seq; molecule type: RNA; medium: in vitro; tested at: 200 nM; notes: whole 134-nt RNA, ends assumed; added: 150 mM LiCl; relative to: input library; reading: higher = stronger binding; library: 7-deaza-guanosine replaces G
Target: Fragile X messenger ribonucleoprotein 1, C-terminal low-complexity region (Fmr1, Mus musculus, UniProt P35922)
Constant ends, left off below: GGGAGUUCUACAGUCCGACGAUC … UGGAAUUCUCGGGUGUCAAGG
For `CACAGACAACACGCACCCACACAGACACAGAGGGAAGGGGUUGAAAUGGGGACAGGGUGCACAGCAGGGCGGGGUAGGACCCCAGCCCCU`, the log2 enrichment was -1.05.
`UGGCCCUGGUGGCAUGCGGGGAGGAAGAGGUGGCCUCAUGGAUCGUGGUGGUCCAGGUGGAAUGUUCAGAGGUGGCCGUGGUGGAGACAG` gave a log2 enrichment of -0.625.
`UCCUGUGCUACACAUCGUAUGUACCGAAUCAAAUUUUUAAACCCCCAAAUUUUUUUAAAAAAGUAUUAUGUUACGCCGUUCGGAUCUGCA` has a log2 enrichment of 0.503.
The log2 enrichment of `UCUAUGUAGCAUCCAGGUACUACUUCCUUUGGAAUGUCAGUAUUUAAUCUGAGCAAUGCGAUUGUGGGCAGUGGAAUCCUUGGGCUUUCU` is reported as -2.37.
`UGGGAGGUGGAUUUUGUUUAUUUUUUUAGCUCAUUUCCAGGGGUGGGAAUUUUUUUUUAAUAUGUGUCAGGAAUAAAGUUGUUUUUGAAA` gave a log2 enrichment of 0.395.
For `CACAGACAACACGCACCCACACAGACACAGAGGGAAGAGGUUGGGAUGGGGACAGGGUGCACAGCAGGGCGGGGUAGGACCCCAGCCCCU`, the log2 enrichment was -0.625.
`CCUCAAGUCCUGUGCUACACAUCGUAUGUACCGAAUCGGCCGGCCGGGCCGGAAAGUAUUAUGUUACGCCGUUCGGAUCUGCACUUCCAG` gave a log2 enrichment of 0.419.
`CACAGACAACACGCACCCACACAGACACAGAGGGAAGGGGUUGGGAUGGGGACAGGGUGCACAGCAGGGCGGGGUAGGACCUCAGCCCCU` has a log2 enrichment of 0.301.

Set 2 — technique: competition protein-binding microarray; molecule type: double-stranded DNA, one strand shown; medium: in vitro; tested at: 2 µM; added: Cbf1 competitor, 0.05 µM; reading: higher = stronger binding; constant ends, left off below: … GTCTTGATTCGCTTGACGCTGCTG
Target: Phosphate system positive regulatory protein PHO4, full length, GST-tagged (PHO4, Saccharomyces cerevisiae, UniProt P07270, residues 1-312)
Notes: whole 60-bp probe, lowest competitor level
Construct (chain): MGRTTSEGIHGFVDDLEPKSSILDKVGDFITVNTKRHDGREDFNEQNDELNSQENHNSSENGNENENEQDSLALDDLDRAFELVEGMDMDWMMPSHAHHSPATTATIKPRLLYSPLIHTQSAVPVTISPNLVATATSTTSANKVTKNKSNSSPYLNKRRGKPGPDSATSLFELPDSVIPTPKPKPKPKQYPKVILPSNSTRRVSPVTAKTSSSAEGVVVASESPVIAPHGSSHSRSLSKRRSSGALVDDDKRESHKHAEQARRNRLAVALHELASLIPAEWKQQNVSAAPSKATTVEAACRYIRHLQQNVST
The fluorescence intensity of `CATACCCAACCTTGATAGGTGGGTGAAGATATTTGT` is reported as 3660 a.u.
For `AGTACATTCACTTCTAACGTGACGGGTTTCACCACA`, the fluorescence intensity was 5020 a.u.
`TAACGCGATTTACGCTCCGTGCAAAACGATTCTTTG` has a fluorescence intensity of 4210 a.u.
The fluorescence intensity of `ACCCAACAATTAAAATCCGTGATGGTTTAATGGTCA` is reported as 4460 a.u.
`AATGTACAATTTTACCAGGCGTGGAACCTGGACCGG` gave a fluorescence intensity of 5170 a.u.
`TTCAGCAAACGGCAGCATGTGAAAAAACCCGTAGAA` has a fluorescence intensity of 5960 a.u.
`CTAACGAAGGTTTGGGCCGTGGGTGACAAGCCAAGT` has a fluorescence intensity of 5400 a.u.
For `CGCTTCCCAGCTTTTCACGTGCGATGTGGACTAATA`, the fluorescence intensity was 14200 a.u.
With `AACCGAATGGCATCGCACGCTATGCAACTAATGACC` the fluorescence intensity was 7730 a.u.
For `AAAGCGGTAATTTGGGCAGTGGGTGCAGATATCTAT`, the fluorescence intensity was 4320 a.u.
`GTCTTGTCTCATTGGAGAGTGGGTGTCCCCACTTCA` has a fluorescence intensity of 4320 a.u.
`AACGGTTGATTCATTAATGTGATGCTTGTTCACCCT` has a fluorescence intensity of 3580 a.u.
`AAATTACTAAGTTGCCCAGTGGGTGACGCCGTATGA` gave a fluorescence intensity of 3860 a.u.
The fluorescence intensity of `TGCGCAACAACTTGTCGCGTGGGTGTATGTCTAGAA` is reported as 9360 a.u.
`TTATCAGTTCTACAGCACGCAGAGAAAAGTAAACGA` gave a fluorescence intensity of 8370 a.u.
With `CAGCAACGGACAGGCGTCGTGCGGACAAACTTGCTC` the fluorescence intensity was 7210 a.u.
`CGAAGGACGTCGCTACACGTGAAAATTCTCCACCAA` has a fluorescence intensity of 10300 a.u.
`AAAGCGGTAATTTTTCACGTGACGTCAAATATCTAT` has a fluorescence intensity of 10600 a.u.
`GTTGGGTTCTACCGTCACGCAATTGCTTCAAGGACC` gave a fluorescence intensity of 3930 a.u.

Set 3 — technique: RNA Bind-n-Seq; molecule type: RNA; medium: in vitro; tested at: 365 nM; relative to: no-protein control; reading: higher = stronger binding
Target: RNA binding protein fox-1 homolog 2, RRM domain, GST-SBP tag (RBFOX2, Homo sapiens, UniProt O43251-10, residues 100-194)
Notes: natural RNA segment, single round, ends assumed
Constant ends, left off below: GGGAGUUCUACAGUCCGACGAUC … UGGAAUUCUCGGGUGCCAA
Target sequence (chain): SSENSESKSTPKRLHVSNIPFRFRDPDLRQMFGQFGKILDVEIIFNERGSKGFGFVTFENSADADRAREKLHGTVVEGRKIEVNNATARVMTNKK
For `GAGACCCCACUCUGACAGUGGGCACACGGCAGCCUGCAAAGCACAGGGCCACCGCCACAGCCCGGCAGAGGGGCACACUCUGGAGACCUUGCUGGCAGUGCUAGCCAGGA`, “RBNS enrichment (R)” read 0.187.
For `AUUUGUAGUGACUGUUCCCUUCCCUCUGUUGCAGGGAACCAGGAGGAAAGGGAAAGAUGUUGCCAUAUUUCCUACUCUUUAGGCAUGGACUCUCCUUUCCCUUUGUUAGU`, “RBNS enrichment (R)” read 0.635.
`CCUCUCAGAUCCCUCGGUCAGCACCGUGGUGUGAGGCCCCCGGAGGCGCCCACCUGCCCAGUUAGCCCGGCCAAGGACACUGAUGGGUCCUGCUGCUCGGGAAGGCCUGA` — result for “RBNS enrichment (R)”: 0.205.
`GCACAUUUGUACAUAUACUUAAUGUUUUCAAGUGCCUUAAUUGUUUAAAAUCUCUGGCUUCAAAGUUUCUUGGGGAAAGGUCGGUUUACCUCACAUUUUUUGUUUCCAUU`: “RBNS enrichment (R)” 0.576.
`GAUGCUAUUGAAACAUACAAAGGUAGACCUUUUGACUUUAAACAGUUAAUAACGAAUGCUGUUUCAAACAUAACCAAUCUGAUCAUUUUUGGAGAACGAUUCACUUAUGA` — result for “RBNS enrichment (R)”: 0.347.
`GAUUUCAUCUUCACCUACCAAGAGGCGGCCGCCUCCUUGGACAAGCCGCUCAUGGACCAUUAGACUUGAGAAGACGACCCACGUGGUGACUGCAAAGCCCUGGGUACUUG` — result for “RBNS enrichment (R)”: 0.408.
For `AUAUAUUGUUUGUUUGUUUGUUUGUUGACAGAGAAAAAUUGGUAUUUAUUUUUCUAUUAUAGCCAUAUUUAUAUAUUUAUGCACUUGUAAAUAAAUGUAUAUGUGUUUCU`, “RBNS enrichment (R)” read 1.81.
`UGGGUUUUUGUCAGAUCCAUGGUCUUAGGACUUGACUGAUGAGCUUUCAGUGAAGAAUCCUCUAAGAUAAAACUUCUAUUUAAAGACUUUAACUAGAAAGUGUUUAUUUU`: “RBNS enrichment (R)” 0.395.

Set 4 — technique: protein binding microarray; molecule type: double-stranded DNA, one strand shown; medium: in vitro; tested at: not given; relative to: not given; reading: higher = stronger binding
Target: Histone acetyltransferase KAT6A, winged helix 1, GST fusion (KAT6A, Homo sapiens, UniProt Q92794, residues 1-85)
Notes: 8-mer, flanks averaged, mean of 2 arrays, mostly near background
Target sequence (chain): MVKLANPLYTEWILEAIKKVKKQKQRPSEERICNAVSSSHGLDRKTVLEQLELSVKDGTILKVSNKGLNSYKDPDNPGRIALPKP
`GCAATGGA` gave an E-score of -0.109.
`AATACCAT` gave an E-score of -0.183.
For `CCAACACA`, the E-score was -0.212.
The E-score of `GAAAGCCC` is reported as 0.0672.
`TCCATGGA` has an E-score of -0.11.
With `CGGGTAAA` the E-score was 0.0893.
For `TATGTAGA`, the E-score was -0.23.
`CTCGAATC` has an E-score of -0.284.
`CACGATAG` has an E-score of -0.215.
`ACGAAGCG` gave an E-score of 0.131.
For `CGAGCTAC`, the E-score was -0.0049.
`GATTACGA` has an E-score of -0.134.
The E-score of `AGTGATCA` is reported as -0.117.
`CGTCCGAA` gave an E-score of 0.142.
`CAGGTTTC` has an E-score of -0.182.
With `ATCATCAA` the E-score was -0.119.
`TCGCATCA` has an E-score of 0.0495.
`CGGATGAC` has an E-score of 0.249.
`ATCGTGAC` gave an E-score of 0.0368.
The E-score of `ACCTTGGG` is reported as -0.0667.
For `ACCGTTCG`, the E-score was 0.0222.

For quick reference, copied from above (set 4):
`GATTACGA` has an E-score of -0.134.
`ATCGTGAC` gave an E-score of 0.0368.
For `CGAGCTAC`, the E-score was -0.0049.
The E-score of `ACCTTGGG` is reported as -0.0667.
With `ATCATCAA` the E-score was -0.119.
`TCGCATCA` has an E-score of 0.0495.
